Measured values from different studies.
Lines come from different studies, so protocols differ. Several values in a cell are separate wells, animals, samples, runs or records. ± gives the spread as reported.
DYRK3: Dual specificity tyrosine-phosphorylation-regulated kinase 3 (DYRK3, Homo sapiens, UniProt O43781)
UniProt P11678, sequence (whole entry, looked up): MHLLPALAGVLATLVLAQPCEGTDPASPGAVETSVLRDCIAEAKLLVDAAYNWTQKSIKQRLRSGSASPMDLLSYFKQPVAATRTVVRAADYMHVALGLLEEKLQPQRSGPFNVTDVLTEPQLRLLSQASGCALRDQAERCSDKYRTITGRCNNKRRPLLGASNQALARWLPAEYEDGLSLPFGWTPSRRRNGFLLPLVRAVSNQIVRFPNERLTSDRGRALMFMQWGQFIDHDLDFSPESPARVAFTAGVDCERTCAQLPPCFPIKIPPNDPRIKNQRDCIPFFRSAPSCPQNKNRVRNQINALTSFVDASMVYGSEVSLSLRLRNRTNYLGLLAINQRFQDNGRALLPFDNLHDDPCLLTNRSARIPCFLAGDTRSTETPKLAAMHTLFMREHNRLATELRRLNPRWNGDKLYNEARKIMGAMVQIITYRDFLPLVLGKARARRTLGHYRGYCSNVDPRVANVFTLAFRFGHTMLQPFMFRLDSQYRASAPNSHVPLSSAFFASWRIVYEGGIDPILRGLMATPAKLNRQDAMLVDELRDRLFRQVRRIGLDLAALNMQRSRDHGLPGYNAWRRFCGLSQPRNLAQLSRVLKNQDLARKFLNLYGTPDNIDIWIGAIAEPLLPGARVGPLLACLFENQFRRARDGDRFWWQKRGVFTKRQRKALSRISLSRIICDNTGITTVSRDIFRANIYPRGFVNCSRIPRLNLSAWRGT
UniProt O43781, sequence (whole entry, looked up): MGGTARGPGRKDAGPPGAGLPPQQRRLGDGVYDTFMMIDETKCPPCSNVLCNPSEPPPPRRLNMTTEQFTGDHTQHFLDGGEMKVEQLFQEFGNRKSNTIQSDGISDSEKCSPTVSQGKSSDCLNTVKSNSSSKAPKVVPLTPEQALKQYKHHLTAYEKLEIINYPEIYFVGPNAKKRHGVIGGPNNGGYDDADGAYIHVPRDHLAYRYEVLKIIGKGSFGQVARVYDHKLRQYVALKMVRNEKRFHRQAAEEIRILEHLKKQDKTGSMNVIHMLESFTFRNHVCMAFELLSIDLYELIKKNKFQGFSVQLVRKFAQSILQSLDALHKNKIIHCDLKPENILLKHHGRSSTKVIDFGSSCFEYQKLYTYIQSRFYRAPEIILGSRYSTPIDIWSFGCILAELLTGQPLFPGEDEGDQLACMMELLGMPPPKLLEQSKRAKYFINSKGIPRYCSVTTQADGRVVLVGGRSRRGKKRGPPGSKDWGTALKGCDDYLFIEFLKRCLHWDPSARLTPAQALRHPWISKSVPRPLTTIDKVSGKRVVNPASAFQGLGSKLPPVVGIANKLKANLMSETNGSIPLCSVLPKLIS
UniProt P42685, sequence (whole entry, looked up): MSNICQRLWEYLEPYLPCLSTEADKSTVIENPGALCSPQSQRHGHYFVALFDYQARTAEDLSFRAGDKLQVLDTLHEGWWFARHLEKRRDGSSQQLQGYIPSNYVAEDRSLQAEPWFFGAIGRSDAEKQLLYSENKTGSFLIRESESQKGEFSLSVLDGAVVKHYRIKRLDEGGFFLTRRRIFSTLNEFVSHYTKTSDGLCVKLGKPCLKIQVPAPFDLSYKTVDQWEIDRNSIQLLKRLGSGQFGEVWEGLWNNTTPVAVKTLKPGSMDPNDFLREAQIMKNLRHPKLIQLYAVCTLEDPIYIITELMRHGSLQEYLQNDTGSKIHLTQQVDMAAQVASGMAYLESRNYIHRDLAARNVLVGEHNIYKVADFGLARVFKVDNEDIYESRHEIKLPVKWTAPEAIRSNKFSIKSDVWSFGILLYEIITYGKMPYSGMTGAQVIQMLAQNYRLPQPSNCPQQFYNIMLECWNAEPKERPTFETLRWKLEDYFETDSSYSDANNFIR
UniProt P53667, sequence (whole entry, looked up): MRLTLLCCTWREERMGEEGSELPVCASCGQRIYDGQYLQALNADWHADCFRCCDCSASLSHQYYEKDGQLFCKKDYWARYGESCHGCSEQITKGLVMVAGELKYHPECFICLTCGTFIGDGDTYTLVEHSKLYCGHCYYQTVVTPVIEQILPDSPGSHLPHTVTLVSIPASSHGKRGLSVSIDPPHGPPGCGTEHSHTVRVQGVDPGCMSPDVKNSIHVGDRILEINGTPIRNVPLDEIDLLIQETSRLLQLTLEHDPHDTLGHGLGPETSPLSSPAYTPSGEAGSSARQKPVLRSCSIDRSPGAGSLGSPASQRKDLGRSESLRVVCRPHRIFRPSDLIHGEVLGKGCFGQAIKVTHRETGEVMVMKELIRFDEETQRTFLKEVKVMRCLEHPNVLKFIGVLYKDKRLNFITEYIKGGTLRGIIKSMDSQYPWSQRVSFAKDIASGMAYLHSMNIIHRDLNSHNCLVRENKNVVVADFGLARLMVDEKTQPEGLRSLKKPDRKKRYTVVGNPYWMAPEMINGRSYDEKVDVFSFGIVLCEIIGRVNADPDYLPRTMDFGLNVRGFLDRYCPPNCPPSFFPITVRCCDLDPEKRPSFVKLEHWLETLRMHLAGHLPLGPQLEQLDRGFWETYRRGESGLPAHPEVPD
UniProt Q16566, sequence (whole entry, looked up): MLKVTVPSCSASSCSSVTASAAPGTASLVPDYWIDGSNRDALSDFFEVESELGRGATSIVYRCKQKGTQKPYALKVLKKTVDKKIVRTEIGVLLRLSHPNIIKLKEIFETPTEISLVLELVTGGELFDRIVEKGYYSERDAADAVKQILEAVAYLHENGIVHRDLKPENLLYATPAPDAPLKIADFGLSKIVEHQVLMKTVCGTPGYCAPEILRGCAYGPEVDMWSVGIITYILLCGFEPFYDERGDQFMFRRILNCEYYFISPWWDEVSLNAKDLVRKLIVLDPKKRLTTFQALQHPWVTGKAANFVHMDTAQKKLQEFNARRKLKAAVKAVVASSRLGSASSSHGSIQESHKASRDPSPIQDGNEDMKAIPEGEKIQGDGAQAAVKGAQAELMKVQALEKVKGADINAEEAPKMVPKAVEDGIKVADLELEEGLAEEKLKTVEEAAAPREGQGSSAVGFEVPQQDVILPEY
UniProt P36897, sequence (whole entry, looked up): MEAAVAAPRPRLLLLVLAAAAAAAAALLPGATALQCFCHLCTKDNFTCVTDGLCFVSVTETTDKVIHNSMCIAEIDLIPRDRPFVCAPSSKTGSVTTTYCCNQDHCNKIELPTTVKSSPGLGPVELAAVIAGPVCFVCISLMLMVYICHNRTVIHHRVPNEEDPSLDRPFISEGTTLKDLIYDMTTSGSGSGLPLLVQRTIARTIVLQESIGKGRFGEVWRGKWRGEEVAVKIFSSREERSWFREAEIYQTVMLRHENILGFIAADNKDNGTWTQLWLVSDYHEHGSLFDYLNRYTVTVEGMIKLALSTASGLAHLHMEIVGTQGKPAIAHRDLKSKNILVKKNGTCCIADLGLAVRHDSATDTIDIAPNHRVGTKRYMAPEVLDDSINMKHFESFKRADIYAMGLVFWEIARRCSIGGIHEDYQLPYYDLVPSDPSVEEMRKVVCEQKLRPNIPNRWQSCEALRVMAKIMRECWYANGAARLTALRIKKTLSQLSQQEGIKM

With `OC[C@H]1O[C@@H](O[C@H]2[C@H](O)[C@@H](O)C(O)O[C@@H]2CO)[C@H](O)[C@@H](O)[C@H]1O` (mixture of isomers) the inhibition was 3.95% (THP-1; pyroptotic LDH release; 2 µM, 40 min, added: LPS then nigericin).
With `Cc1cc(Nc2cc(N3CCN(C)CC3)nc(Sc3ccc(NC(=O)C4CC4)cc3)n2)[nH]n1` the remaining activity was 91% (LIM domain kinase 1 (LIMK1, Homo sapiens, UniProt P53667); kinase activity, KinaseProfiler; 0.03 µM, species human; reference: control).
The inhibition of `CC(=O)c1ccccc1O` is reported as 2.11% (THP-1; pyroptotic LDH release; 2 µM, 40 min, added: LPS then nigericin).
For `COc1cc(-c2cncc3c2CN(C)Cc2cc(N4CCNCC4)ccc2-3)cc(OC)c1OC`, the remaining activity was 108% (DYRK3; kinase activity; 1 µM, human enzyme, added: ATP 10 µM; reference: DMSO control).
`COc1cc(F)ccc1-c1ncnc(Nc2cccc(C[S@](C)(=N)=O)c2)n1` gave a remaining activity of 98% (TGF-beta receptor type-1 (TGFBR1, Homo sapiens, UniProt P36897); kinase activity; 10 µM, added: 10 µM ATP).
For `COc1ccc(F)cc1C(=O)NCc1ccc(-c2nn([C@@H](C)C(F)(F)F)c(N)c2C(N)=O)cc1`, the remaining activity was 98.2 ± 0.1% (Tyrosine-protein kinase FRK (FRK, Homo sapiens, UniProt P42685); kinase activity, inhibitor, HotSpot radiometric; 100 nM, added: ATP 10 µM).
For `O=C(O)c1ccc(Nc2ncc3c(n2)-c2ccc(Cl)cc2C(c2c(F)cccc2F)=NC3)cc1`, the remaining activity was 65% (Flt1(h); kinase activity; 1 µM).
For `C=CC(=O)N1CCC[C@@H](n2nc(-c3ccc(Oc4ccccc4)cc3)c3c(N)ncnc32)C1`, the remaining activity was 49.9% (DYRK3; 1 µM).
`O=C(NC1CCC1)c1ccc2nc(-c3cccc(NS(=O)(=O)NCCN4CCCCC4)c3)cn2c1` has a remaining activity of 100% (Calcium/calmodulin-dependent protein kinase type IV (CAMK4, Homo sapiens, UniProt Q16566); enzyme activity; 10 µM).
With `COc1cc(Nc2ncc3c(n2)-c2ccc(Cl)cc2C(c2c(F)cccc2OC)=NC3)ccc1C(=O)O` the remaining activity was 49% (TYRO3; kinase activity; 1 µM).
With `O=C1NC(=O)/C(=C/c2ccc(-c3ccc(F)cc3O)o2)S1` the remaining activity was 39% (AMPK; enzyme activity; 10 µM).
For `NC/C(=C\F)COc1cccc(Cn2c(=S)[nH]c(=O)c3[nH]cnc32)c1`, the remaining activity was 46.3% and 34.8% (Eosinophil peroxidase (Homo sapiens, UniProt P11678); H2O2 electrode; 20 µM; reference: control).

Excerpt of the above:
For `COc1ccc(F)cc1C(=O)NCc1ccc(-c2nn([C@@H](C)C(F)(F)F)c(N)c2C(N)=O)cc1`, the remaining activity was 98.2 ± 0.1% (Tyrosine-protein kinase FRK (FRK, Homo sapiens, UniProt P42685); kinase activity, inhibitor, HotSpot radiometric; 100 nM, added: ATP 10 µM).
